Measurements pooled from the literature.
Protocols differ between the studies behind these lines.
Target: Tyrosine-protein phosphatase non-receptor type 1 (PTPN1, Homo sapiens, UniProt P18031)
One construct used (P18031 1-435): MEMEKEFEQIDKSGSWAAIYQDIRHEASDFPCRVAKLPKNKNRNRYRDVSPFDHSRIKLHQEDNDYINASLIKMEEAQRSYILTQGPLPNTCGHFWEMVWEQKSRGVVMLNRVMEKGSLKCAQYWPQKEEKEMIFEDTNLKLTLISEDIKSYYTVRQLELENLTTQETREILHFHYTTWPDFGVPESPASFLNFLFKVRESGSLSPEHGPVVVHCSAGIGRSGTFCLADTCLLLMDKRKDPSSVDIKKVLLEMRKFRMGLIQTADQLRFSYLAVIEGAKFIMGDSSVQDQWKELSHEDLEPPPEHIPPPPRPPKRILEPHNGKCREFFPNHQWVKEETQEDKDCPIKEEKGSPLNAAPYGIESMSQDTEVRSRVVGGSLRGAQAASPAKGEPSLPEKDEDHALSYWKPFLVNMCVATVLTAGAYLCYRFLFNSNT

SMILES = CC(C)=CCC[C@](C)(O[C@@H]1O[C@H](CO[C@@H]2O[C@H](CO)[C@@H](O)[C@H](O)[C@H]2O)[C@@H](O)[C@H](O)[C@H]1O)C1CC[C@]2(C)C1[C@H](O)CC1[C@@]3(C)CC[C@H](O[C@@H]4O[C@H](CO)[C@@H](O)[C@H](O)[C@H]4O[C@@H]4O[C@H](CO)[C@@H](O)[C@H](O)[C@H]4O[C@@H]4OC[C@@H](O)[C@H](O)[C@H]4O)C(C)(C)C3CC[C@]12C (some centres unmarked); test = enzyme activity, inhibitor, absorbance; setting = pH 7.4; endpoint = IC50; value = > 100000 nM
SMILES = C=CC1C(OC2OC(CO)C(O)C(O)C2O)OC=C2C(=O)OCCC21 (centres unmarked); test = enzyme activity, inhibitor, absorbance; endpoint = IC50; value = > 100000 nM
SMILES = CC(=O)N[C@H]1CCCCn2cc3ccccc3c2SC[C@@H](C(N)=O)NC(=O)[C@H](Cc2ccc(O)cc2)NC(=O)[C@H](CCCNC(=N)N)NC(=O)[C@H](Cc2c[nH]c3ccccc23)NC(=O)[C@H](Cc2c[nH]cn2)NC(=O)[C@H](CC(C)C)NC(=O)[C@H](Cc2ccccc2)NC(=O)[C@H]([C@@H](C)O)NC1=O; test = binding, BLI; endpoint = Kd; value = 1900 nM
SMILES = CC(C)[C@H]1NC(=O)[C@H](CO)NC(=O)c2cc3cc(c2)C(=O)NC[C@H](NC(=O)[C@H](Cc2c[nH]cn2)NC(=O)[C@H](Cc2ccc(C(F)(F)P(=O)(O)O)cc2)NC(=O)[C@@H]2CCCN2C1=O)C(=O)N[C@@H](Cc1ccccc1)C(=O)N[C@@H](Cc1ccc2ccccc2c1)C(=O)N[C@@H](CCCNC(=N)N)C(=O)N[C@@H](CCCNC(=N)N)C(=O)N[C@@H](CCCNC(=N)N)C(=O)N[C@@H](CCCNC(=N)N)C(=O)N[C@H](C(=O)N[C@@H](CCCCN)C(N)=O)CNC3=O; test = enzyme activity, inhibitor, absorbance; endpoint = Ki; value = 37 nM
SMILES = CC(C)=CCC[C@](C)(O[C@@H]1O[C@H](CO[C@@H]2O[C@@H](CO)[C@H](O)[C@H]2O)[C@@H](O)[C@H](O)[C@H]1O)C1CC[C@]2(C)C1[C@H](O)CC1[C@@]3(C)CC[C@H](O[C@@H]4O[C@H](CO)[C@@H](O)[C@H](O)[C@H]4O)C(C)(C)C3CC[C@]12C (some centres unmarked); test = enzyme activity, inhibitor, absorbance; setting = pH 7.4; endpoint = IC50; value = > 100000 nM
SMILES = Cc1ccccc1N1C(=O)/C(=C/c2ccc(OCc3cccc(C(=O)O)c3)cc2)C(=O)NC1=S; test = enzyme activity, inhibitor; endpoint = IC50; value = 1590 nM
SMILES = CC(C)=C/C=C/[C@@H](C)[C@H]1CC[C@@H]2[C@]1(C)CC[C@H]1[C@]23C=C[C@]2(C[C@@H](O)CC[C@]12C)OO3; test = enzyme activity, inhibitor, absorbance; endpoint = IC50; value = 570 nM
SMILES = NC1=NN=Cc2ccccc2[O][V](=[O])[O]1.c1cnc2c(c1)ccc1cccnc12; test = enzyme activity, inhibitor; endpoint = IC50; value = 270 nM

Some of these lines once more:
SMILES = CC(C)=CCC[C@](C)(O[C@@H]1O[C@H](CO[C@@H]2O[C@@H](CO)[C@H](O)[C@H]2O)[C@@H](O)[C@H](O)[C@H]1O)C1CC[C@]2(C)C1[C@H](O)CC1[C@@]3(C)CC[C@H](O[C@@H]4O[C@H](CO)[C@@H](O)[C@H](O)[C@H]4O)C(C)(C)C3CC[C@]12C (some centres unmarked); test = enzyme activity, inhibitor, absorbance; setting = pH 7.4; endpoint = IC50; value = > 100000 nM
